Assay results pooled from the literature.
Each numbered part is a random draw from the data of one study; scales do not carry over between parts. Values joined by “and” are separate records of one study, mostly repeats; a detail may differ.
Sequence of UniProt Q9UM73 (whole entry, unmodified, looked up): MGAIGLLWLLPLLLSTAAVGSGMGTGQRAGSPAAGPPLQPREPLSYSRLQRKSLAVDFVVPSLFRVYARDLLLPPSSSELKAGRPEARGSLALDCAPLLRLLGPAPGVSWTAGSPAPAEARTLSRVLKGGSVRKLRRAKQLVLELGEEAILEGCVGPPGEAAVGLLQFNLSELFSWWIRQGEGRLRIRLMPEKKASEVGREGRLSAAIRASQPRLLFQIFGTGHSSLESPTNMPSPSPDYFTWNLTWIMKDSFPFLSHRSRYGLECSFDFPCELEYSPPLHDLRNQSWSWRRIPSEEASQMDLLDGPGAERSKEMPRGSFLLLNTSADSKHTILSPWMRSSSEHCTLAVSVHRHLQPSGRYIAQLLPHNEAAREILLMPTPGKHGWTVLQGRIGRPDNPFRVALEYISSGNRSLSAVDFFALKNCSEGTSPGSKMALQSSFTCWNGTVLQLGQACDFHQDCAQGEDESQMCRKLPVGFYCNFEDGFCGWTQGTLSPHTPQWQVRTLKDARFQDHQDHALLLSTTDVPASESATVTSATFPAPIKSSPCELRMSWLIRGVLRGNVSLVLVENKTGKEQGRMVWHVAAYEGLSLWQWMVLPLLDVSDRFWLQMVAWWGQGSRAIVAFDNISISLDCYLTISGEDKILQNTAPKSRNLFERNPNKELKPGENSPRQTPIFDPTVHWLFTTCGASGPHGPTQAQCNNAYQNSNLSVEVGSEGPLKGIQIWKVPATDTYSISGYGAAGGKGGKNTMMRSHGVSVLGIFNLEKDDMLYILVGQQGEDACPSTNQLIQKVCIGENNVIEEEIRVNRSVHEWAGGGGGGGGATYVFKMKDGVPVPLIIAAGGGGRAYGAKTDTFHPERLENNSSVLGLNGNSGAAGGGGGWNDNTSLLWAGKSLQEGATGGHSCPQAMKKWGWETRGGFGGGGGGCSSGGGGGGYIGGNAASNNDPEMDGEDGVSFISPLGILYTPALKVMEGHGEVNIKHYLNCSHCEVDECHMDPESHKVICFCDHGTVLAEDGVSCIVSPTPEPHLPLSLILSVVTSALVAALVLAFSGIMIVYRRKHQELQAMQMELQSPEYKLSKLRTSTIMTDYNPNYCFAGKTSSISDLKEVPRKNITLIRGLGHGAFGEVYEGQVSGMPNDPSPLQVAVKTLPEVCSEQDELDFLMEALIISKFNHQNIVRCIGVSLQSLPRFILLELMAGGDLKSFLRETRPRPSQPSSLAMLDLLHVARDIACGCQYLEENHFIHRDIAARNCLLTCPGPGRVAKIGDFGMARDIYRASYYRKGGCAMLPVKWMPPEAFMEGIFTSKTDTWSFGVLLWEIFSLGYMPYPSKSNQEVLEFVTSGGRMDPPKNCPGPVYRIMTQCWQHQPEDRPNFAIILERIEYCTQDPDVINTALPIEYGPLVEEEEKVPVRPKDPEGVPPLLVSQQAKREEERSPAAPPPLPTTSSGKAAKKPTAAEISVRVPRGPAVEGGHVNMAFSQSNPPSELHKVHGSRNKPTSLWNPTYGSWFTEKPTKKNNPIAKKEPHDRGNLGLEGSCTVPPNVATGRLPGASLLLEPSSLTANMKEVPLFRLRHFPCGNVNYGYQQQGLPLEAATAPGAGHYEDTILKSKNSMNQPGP
Sequence of UniProt Q9Y6M4 (whole entry, looked up): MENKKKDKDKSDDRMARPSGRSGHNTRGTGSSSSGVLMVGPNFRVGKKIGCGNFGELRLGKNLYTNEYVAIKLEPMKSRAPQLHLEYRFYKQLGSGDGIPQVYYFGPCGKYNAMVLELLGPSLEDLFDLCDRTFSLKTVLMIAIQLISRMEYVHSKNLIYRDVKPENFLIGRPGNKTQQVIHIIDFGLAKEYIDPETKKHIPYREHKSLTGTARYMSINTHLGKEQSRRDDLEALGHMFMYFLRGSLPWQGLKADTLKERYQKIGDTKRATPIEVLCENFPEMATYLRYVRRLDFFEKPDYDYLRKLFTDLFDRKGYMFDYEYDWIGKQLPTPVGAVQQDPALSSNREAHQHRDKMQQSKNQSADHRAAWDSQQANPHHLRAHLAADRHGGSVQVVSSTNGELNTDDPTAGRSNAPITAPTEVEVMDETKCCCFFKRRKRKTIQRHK
Sequence of UniProt Q15303 (whole entry, looked up): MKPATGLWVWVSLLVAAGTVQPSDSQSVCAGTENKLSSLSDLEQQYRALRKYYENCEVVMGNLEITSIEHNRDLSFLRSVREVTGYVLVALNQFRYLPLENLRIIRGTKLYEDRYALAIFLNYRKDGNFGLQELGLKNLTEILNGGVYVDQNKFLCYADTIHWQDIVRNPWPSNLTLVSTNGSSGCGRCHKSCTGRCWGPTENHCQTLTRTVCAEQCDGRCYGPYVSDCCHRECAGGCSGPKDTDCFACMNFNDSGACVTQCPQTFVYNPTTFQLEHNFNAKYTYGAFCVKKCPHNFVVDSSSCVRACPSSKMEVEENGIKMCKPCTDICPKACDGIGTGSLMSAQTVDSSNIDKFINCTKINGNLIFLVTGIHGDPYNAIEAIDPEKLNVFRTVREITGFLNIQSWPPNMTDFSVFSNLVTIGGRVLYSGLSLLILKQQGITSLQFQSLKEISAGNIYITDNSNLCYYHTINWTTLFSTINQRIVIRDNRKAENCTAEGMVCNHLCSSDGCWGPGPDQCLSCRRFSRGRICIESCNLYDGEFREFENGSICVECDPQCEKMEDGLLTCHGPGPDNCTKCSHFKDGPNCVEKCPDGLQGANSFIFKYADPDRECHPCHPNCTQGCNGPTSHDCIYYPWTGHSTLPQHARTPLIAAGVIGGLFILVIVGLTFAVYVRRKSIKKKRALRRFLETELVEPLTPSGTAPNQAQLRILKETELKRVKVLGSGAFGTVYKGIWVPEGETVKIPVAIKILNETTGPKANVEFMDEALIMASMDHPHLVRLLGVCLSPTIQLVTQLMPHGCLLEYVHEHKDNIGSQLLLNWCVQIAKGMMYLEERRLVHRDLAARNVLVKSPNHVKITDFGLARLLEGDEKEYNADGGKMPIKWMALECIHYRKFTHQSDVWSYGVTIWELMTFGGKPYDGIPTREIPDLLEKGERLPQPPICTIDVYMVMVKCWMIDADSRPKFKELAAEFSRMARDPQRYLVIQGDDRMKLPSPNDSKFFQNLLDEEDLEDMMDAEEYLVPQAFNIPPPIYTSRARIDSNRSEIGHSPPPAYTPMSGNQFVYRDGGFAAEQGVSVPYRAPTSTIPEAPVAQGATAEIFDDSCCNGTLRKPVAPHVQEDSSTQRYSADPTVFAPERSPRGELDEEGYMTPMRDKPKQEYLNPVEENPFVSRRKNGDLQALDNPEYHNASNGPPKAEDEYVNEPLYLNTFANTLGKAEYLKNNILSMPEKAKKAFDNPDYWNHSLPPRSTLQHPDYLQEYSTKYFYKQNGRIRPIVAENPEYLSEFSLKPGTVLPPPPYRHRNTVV

Study 1 — observed: binding; mode: competitor; technique: NanoBRET; cells: HEK293
SMILES: C=CC(=O)N1CCN(c2nc(OC[C@@H]3CCCN3C)nc3c2CCN(c2cccc4cccc(C)c24)C3)C[C@@H]1CC#N
KRAS Q61R: GTPase KRas (KRAS, Homo sapiens, UniProt P01116, Q61R)
KRAS Q61L: GTPase KRas (KRAS, Homo sapiens, UniProt P01116, Q61L)
HRAS: GTPase HRas (HRAS, Homo sapiens, UniProt P01112)
It gave 101% and 92.3% and 98.9% for normalized BRET (KRAS Q61R; 1.02 nM).
The normalized BRET was 91.3% and 93.1% and 93.3% (KRAS Q61L; 27.4 nM).
For HRAS; 247 nM: normalized BRET read 88.8% and 106%.
For HRAS; 10 µM: normalized BRET read 155%.
KRAS Q61L; 20 µM — normalized BRET: 14.9% and 14.3% and 21.4%.
KRAS Q61R; 82.2 nM — normalized BRET: 103% and 100% and 88.2%.
GTPase KRas (KRAS, Homo sapiens, UniProt P01116, G12D); 3.05 nM — normalized BRET: 94% and 94.8%.
The normalized BRET was 104% and 99.3% and 88% (KRAS Q61R; 27.4 nM).

Study 2 — observed: binding; technique: competition with immobilised ligand; concentration: 1 µM
Compound: COc1cc(-c2nc3ccc(C(=O)NCCCN4CCN(c5cccc(C)c5C)CC4)cc3n2C2CCC2)cc(OC)c1OC
For ALK (Homo sapiens, UniProt Q9UM73, C1156Y): remaining binding read 90%.
It gave 97% for remaining binding (CAMK2A (Homo sapiens, UniProt Q9UQM7)).
The remaining binding was 87% (CDK13 (Homo sapiens, UniProt Q14004)).
MYLK4 (Homo sapiens, UniProt Q86YV6) — remaining binding: 100%.
It gave 97% for remaining binding (CSNK1G3 (Homo sapiens, UniProt Q9Y6M4)).
For ALK (Homo sapiens, UniProt Q9UM73): remaining binding read 73%.
It gave 97% for remaining binding (ERBB4 (Homo sapiens, UniProt Q15303)).
AXL (Homo sapiens, UniProt P30530) — remaining binding: 94%.

Study 3 — SMILES: O=c1[nH]c(=S)n(C[C@H]2CCCO2)c2nc[nH]c12
AOC3: Amine oxidase [copper-containing] 3 (AOC3, Homo sapiens, UniProt Q16853)
Sequence of UniProt Q16853 (whole entry, looked up): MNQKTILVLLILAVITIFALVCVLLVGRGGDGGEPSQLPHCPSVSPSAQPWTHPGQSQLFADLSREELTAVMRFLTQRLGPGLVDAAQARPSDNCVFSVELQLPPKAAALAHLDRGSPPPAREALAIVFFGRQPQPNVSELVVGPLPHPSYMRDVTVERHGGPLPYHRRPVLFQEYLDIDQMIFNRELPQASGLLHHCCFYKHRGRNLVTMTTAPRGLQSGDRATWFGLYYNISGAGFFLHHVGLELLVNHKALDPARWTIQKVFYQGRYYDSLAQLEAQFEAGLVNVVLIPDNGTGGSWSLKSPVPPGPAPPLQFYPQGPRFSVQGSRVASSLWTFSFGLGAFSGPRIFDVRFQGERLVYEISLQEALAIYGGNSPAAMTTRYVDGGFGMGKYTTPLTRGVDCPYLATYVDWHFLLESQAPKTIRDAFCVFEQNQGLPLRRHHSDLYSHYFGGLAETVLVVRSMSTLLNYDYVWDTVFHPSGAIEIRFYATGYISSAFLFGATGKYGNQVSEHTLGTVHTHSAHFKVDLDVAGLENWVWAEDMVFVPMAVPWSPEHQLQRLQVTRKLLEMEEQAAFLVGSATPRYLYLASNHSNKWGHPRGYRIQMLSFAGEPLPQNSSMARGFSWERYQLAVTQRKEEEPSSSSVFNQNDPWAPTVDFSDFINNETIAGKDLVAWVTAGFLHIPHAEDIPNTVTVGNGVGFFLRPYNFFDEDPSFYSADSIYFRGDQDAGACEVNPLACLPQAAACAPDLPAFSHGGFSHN
MPO: Myeloperoxidase (MPO, Homo sapiens, UniProt P05164)
Sequence of UniProt P05164 (whole entry, looked up): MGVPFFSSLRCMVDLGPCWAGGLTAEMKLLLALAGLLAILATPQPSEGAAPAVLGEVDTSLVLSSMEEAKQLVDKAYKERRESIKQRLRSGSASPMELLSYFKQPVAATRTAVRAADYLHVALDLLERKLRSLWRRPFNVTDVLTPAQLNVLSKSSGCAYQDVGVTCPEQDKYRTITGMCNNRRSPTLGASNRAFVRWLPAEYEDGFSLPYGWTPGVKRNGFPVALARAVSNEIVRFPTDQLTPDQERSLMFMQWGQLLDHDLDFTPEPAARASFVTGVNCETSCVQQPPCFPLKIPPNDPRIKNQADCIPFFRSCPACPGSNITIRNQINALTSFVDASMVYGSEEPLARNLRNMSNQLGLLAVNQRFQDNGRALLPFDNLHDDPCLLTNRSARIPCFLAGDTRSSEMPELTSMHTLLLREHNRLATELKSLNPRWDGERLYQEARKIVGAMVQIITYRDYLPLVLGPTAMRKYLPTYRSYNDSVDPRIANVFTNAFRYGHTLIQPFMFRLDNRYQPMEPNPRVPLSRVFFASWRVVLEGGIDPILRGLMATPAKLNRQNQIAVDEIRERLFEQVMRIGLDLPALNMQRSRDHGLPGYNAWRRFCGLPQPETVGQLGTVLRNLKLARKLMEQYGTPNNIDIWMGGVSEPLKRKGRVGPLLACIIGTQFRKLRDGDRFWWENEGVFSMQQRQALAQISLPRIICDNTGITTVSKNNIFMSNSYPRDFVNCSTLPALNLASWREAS
AOC3; enzyme activity, inhibitor, fluorescence; 1.4 nM — inhibition: -7.84%.
AOC3; enzyme activity, inhibitor, fluorescence; 4.1 nM — inhibition: -12.4%.
The inhibition was 98.8% (MPO; Amplex Red; 1.111 µM).
It gave 77.9% and 36.8% and 64.9% and 42.7% and 66.9% and 78.3% and 53.1% for inhibition (MPO; enzyme activity, inhibitor, fluorescence; 61.7 nM).
The inhibition was -1.15% and -8.59% and -15.5% and -22.5% and -1.8% and -14.4% (MPO; enzyme activity; 0.0015 µM).
MPO; enzyme activity, inhibitor, fluorescence; 5 µM — inhibition: 100%.
It gave -17.2% for inhibition (AOC3; enzyme activity, inhibitor, fluorescence; 37 nM).
For AOC3; enzyme activity, inhibitor, fluorescence; 200 pM: inhibition read -6.28%.

Other studies, line by line
`Cn1cc(-c2cccc(CN3CCC4(CC3)COc3c4ccc4c3CN([C@H]3CCC(=O)NC3=O)C4=O)c2)cn1` has a scaled CLint of 55.7 mL/min/kg (metabolic stability; monkey, liver microsomes).

Excerpt of the above (study 1):
The normalized BRET was 104% and 99.3% and 88% (KRAS Q61R; 27.4 nM).
KRAS Q61R; 82.2 nM — normalized BRET: 103% and 100% and 88.2%.
It gave 101% and 92.3% and 98.9% for normalized BRET (KRAS Q61R; 1.02 nM).
